Published values pooled from the literature.
Compare with care: the assays were run in different laboratories.
Cell line: BV-2
Action: inhibitor

C#CCOc1ccc(/C=C/C(=O)N2CCc3ccccc3C2)cc1OC  inhibition (NO release, Griess; 10 µM, LPS-stimulated): 57.3%
COC1=CC(=O)c2ccc3cc(OC)c(OC)c(OC)c3c2C1=O  IC50 (NO release, Griess; LPS-stimulated): 8.77 µM
COc1cc(/C=C/C(=O)N2CCc3ccccc3C2)ccc1OC1CCCCC1  inhibition (NO release, Griess; 5 µM, LPS-stimulated): 40.4%
COc1cc(O)c2c(c1)O[C@H](c1ccc(O)cc1)CC2=O  IC50 (TNF-α release, ELISA; LPS-stimulated): 158 µM
C[C@@H]1C[C@H]2[C@@H]3CCC4=CC(=O)C=C[C@]4(C)[C@@]3(F)[C@@H](O)C[C@]2(C)[C@@]1(O)C(=O)CO  IC50 (NO release, Griess; 24 h, LPS-stimulated): < 0.2 µM
COc1cc(O)cc2c1-c1c(O)cccc1CC2  IC50 (NO release, Griess; LPS-stimulated): > 20 µM
C#CCOc1ccc(/C=C/C(=O)N2CCC(Cc3ccccc3)CC2)cc1OC  inhibition (NO release, Griess; 10 µM, LPS-stimulated): 55.7%
O=Cc1ccc(O)cc1  IC50 (NO release, Griess; LPS-stimulated): > 20 µM
COc1cc(O)c2c(=O)c(O)c(-c3ccc(O)c(O)c3)oc2c1  Hill slope (TNF-alpha release, ELISA; 24 h, added: 10 µg/mL LPS + 10 µM MLA): -1

Excerpt of the above:
C[C@@H]1C[C@H]2[C@@H]3CCC4=CC(=O)C=C[C@]4(C)[C@@]3(F)[C@@H](O)C[C@]2(C)[C@@]1(O)C(=O)CO  IC50 (NO release, Griess; 24 h, LPS-stimulated): < 0.2 µM
